# Results from different studies.
# Numbered parts are unrelated; each lists some results of a single study. Changes are numbered by the printed parent chain.

# Block 1
# Target: Histone acetyltransferase KAT6A, both winged helices, GST fusion (KAT6A, Homo sapiens, UniProt Q92794, residues 1-181)
# Technique: protein binding microarray
# Molecule type: double-stranded DNA, one strand shown
# Sample: in vitro
# Tested at: not given
# Notes: 8-mer, flanks averaged, mean of 2 arrays, mostly near background
# Reference: not given
# Reading: higher = stronger binding
# Target sequence (chain): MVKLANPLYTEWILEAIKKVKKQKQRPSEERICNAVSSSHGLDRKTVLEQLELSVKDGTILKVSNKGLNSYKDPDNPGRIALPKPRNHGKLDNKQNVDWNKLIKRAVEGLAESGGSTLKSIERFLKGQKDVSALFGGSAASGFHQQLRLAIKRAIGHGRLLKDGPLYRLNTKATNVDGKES
Strand,E-score
GAGCGGAA,0.217
CAGCGGAC,0.18
CTTAACGC,0.00581
AATGACTC,-0.145
AGCTCGAT,-0.157
GTTAGGTA,-0.0382
AACGTCGT,0.17
ATACAATG,-0.0806
GATCGCTA,0.0972
ACCACAGT,-0.116
ACTTATCG,-0.0577
ATCTCAAG,-0.209
GAACGGAA,0.193
ATCTGTCG,0.0753
AGGCAGTC,-0.0706
GAGACCAA,0.00449
CCTGGTCA,-0.172
AAAACTAG,-0.123
AGCGTTCA,-0.0459
CCTCTAAA,-0.134
AAAATGCA,-0.0874
ACATCTAG,-0.129
CCATGGTC,-0.0353
CGATCGAC,0.045

# Block 2
# Target: RNA binding protein fox-1 homolog 2, RRM domain, GST-SBP tag (RBFOX2, Homo sapiens, UniProt O43251-10, residues 100-194)
# Technique: RNA Bind-n-Seq
# Molecule type: RNA
# Sample: in vitro
# Tested at: 365 nM
# Notes: natural RNA segment, single round, ends assumed
# Reference: no-protein control
# Reading: higher = stronger binding
# Construct (chain): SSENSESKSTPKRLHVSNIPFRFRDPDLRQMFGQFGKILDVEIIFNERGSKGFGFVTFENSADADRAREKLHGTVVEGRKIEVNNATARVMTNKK
Strand,RBNS enrichment (R)
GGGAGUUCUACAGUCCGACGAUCAGAAGACUAUGAAAGGAAGCUCAACUCCAGUAAAGAACUAGAACAGUGUAUAACAUGAAGAUAACAUUUUGUCUUUGACCACUGUCUUUUGAAUGGGCCCACAGUGUUUAUGGAAUUCUCGGGUGCCAA,0.432
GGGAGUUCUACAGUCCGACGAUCUGGUUGGGAGUGGUGCCAGUUGAACAGCAGAUUCUGCUUCUUGUCACUGUUUCAAAAGCGUCAACUCUGUGUUCCUAGUUUCGAUGAACUCCCCAUUCAUUUUUAACACAUGGAAUUCUCGGGUGCCAA,0.873
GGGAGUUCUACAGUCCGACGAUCUCCAGCCAGACUUCAGGAUCUGUUGCAGGAGUUGGACUCACUGUGGGAAAAGCAGCGUUCCCUCUCCUUAAGCCACAGGCAGAUUGUGUAAAACAGGAACAGCAGCGGCUUGGAAUUCUCGGGUGCCAA,0.296
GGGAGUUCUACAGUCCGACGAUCAGCACUGUAUACUAUUGCAUUCUUAGGCUACUGUGAGGUCUAUGUUUCUUGUACCAGAAAUUGUCCUUUUGACUUCUAGAUCCUUCUUCCCUAAUGUGUUUUGUAUGUGGUGGAAUUCUCGGGUGCCAA,1.57
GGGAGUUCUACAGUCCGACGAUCGUAGGACAAAGUUGUCACAGGUUUUUGUUGUUGUUUUUAUUGCCCCCAAAAUUACAUGUUAAUUUCCAUUUAUAUCAGGGAUUCUAUUUACUUGAAGACUGUGAAGUUGCUGGAAUUCUCGGGUGCCAA,2.18
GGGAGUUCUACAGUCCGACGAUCCACUAUGUCCCAGUCUUCUCAUGUGACCUCAGCCUGAACCCUGUGGAGACCUCCUCUGGCCAGGGGGCCACUGGUGUCCUCACUGUGUUGGGAUUCUGUUAUCCCUGAUAUGGAAUUCUCGGGUGCCAA,0.353
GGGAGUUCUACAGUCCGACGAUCCAUUCUUAACCAAGGCUGCCUCUUCCAACAGGGCGGGAAUCAGACCUACUCCCCUAGGUCACAACUCUGGGAAGGAUACAGAGCCCCCACCCUUCACUGAGUUCUCUGGAUGGAAUUCUCGGGUGCCAA,0.251
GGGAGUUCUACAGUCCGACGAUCGGCCACUUCUCUGAAGGAGGGCUGGGUUCUGGGCCUGUAUCGAAUAAACACAAACCUGGAUGGCGCAGUGGUCGCAGUGGCUUCAGACCCUCCUUGUCUGCCCCUCCCCUUGGAAUUCUCGGGUGCCAA,0.195
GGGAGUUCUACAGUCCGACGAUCUGCCAGGUCUGCCUAGCGUUUACCACUGUUGUUAAGCCACAGCCCUUGGCCACCACAUGGCCAUCCUCAGUGAGGCGCCAUGAACCCUUCUUAGGCCCUCAGGUCCCCAUUGGAAUUCUCGGGUGCCAA,0.183
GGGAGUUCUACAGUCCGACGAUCUUUCCACCUCACUGUCUCCAUCCUCCACCUCUGAGAUGGACACUUAAGAGACGGGGCAAAUGUGGAUCCAAGAAACCAGGGCCAUGACCGGGUCCACUGUGGAGCAGCCAUGGAAUUCUCGGGUGCCAA,0.252
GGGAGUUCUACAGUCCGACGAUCUAAAGCCAGUGAAAAUUUCACCCUCUGAGGGAGUUCCCCAAUCUGAAGGGGAAGAGGGUGACCUCAGCGGCUUUUCUCCCAAAAAUCGGCUGAAGGCUGGUUGUGGAUCCUGGAAUUCUCGGGUGCCAA,0.856
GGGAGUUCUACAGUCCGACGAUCGCACAGGGAGAAGGGAUAACCCUACACCCAGACCCCAGGCUGGACAUGCUGACUGUCCUCUCCCCUCCAGCCUUUGGCCUUGGCUUUUCUAGCCUAUUUACCUGCAGGCUUGGAAUUCUCGGGUGCCAA,0.258

# Block 3
# Target: Ras GTPase-activating protein-binding protein 1, full length (G3BP1, Homo sapiens, UniProt Q13283)
# Sequence of UniProt Q13283 (whole entry, looked up): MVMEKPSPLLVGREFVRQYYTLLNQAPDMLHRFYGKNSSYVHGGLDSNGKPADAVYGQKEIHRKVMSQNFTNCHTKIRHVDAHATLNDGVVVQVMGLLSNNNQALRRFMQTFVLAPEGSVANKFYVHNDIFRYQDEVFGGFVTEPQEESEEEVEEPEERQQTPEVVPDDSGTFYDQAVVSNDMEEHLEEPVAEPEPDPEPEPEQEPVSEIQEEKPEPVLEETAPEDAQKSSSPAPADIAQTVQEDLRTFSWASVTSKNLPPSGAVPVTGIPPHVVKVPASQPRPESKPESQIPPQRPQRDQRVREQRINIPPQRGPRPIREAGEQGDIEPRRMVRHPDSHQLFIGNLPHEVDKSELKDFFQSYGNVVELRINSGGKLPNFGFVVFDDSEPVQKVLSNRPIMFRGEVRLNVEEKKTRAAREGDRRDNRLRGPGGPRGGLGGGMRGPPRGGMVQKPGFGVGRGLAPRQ
# Technique: RNA Bind-n-Seq
# Molecule type: RNA
# Sample: in vitro
# Tested at: 200 nM
# Notes: whole 134-nt RNA, ends assumed
# Added: 150 mM KCl
# Reference: input library
# Reading: higher = stronger binding
Strand,log2 enrichment
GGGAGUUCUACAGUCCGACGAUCUAGCAUAUUGCCUUGUUCACUACCGAGGAGAUGAGAAGAUUAAAGGUUUCAUAUGGGAUCUCAUUACUCCAACUGAAGAUGGACAGACACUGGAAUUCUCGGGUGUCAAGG,0.28
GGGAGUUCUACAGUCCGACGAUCGUCCUGUGCUACACAUCGUAUGUACCGAAUCAAAUUUUUAAACCCAAACCCCCCCAAAAAAGUAUUAUGUUACGCCGUUCGGAUCUGCACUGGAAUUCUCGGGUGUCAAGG,-0.328
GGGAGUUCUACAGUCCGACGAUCGUCCUGUGCUACACAUCGUAUGUACCGAAUCGGUUUUUGGGGUUUUUGGGUUUUUGGGGAAAGUAUUAUGUUACGCCGUUCGGAUCUGCAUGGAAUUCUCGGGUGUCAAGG,-0.528
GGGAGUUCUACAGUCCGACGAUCUUCCUCAAGUCCUGUGCUACACAUCGUAUGUACCGAAUCGGAGGAGGAGGGAAAGUAUUAUGUUACGCCGUUCGGAUCUGCACUUCCAGCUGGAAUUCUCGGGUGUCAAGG,-0.662
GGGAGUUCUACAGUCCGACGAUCAGUCCUGUGCUACACAUCGUAUGUACCGAAUCGGGGUUUUUUUGGGGUGGGGUGGGGAAAGUAUUAUGUUACGCCGUUCGGAUCUGCACUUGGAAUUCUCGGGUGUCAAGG,0.817
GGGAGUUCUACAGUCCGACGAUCAAGUCCUGUGCUACACAUCGUAUGUACCGAAUCGGAAAAGGGGAAAAGGGGAAAAGGAAAGUAUUAUGUUACGCCGUUCGGAUCUGCACUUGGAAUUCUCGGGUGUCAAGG,-0.513
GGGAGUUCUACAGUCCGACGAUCGCAGGAAGUAAAGACAAAUGGAAAUGCUUCGGAUAGUGGCAGGGGUGGGGGUUGCUAAGGAAAGGGUGGGAUGGGAGUGGGUAAAGAGUUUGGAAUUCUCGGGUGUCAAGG,1.03
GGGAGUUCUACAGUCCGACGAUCUCCUGUGCUACACAUCGUAUGUACCGAAUCGGGGUUUUUUUGGGGUUUGGGGUUUGGGGAAAGUAUUAUGUUACGCCGUUCGGAUCUGCAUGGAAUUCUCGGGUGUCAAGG,0.8
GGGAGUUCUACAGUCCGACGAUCCUGUGCUACACAUCGUAUGUACCGAAUCGGGGUUUUUUUGGUUUUUUUGGGGUUUUUUUGGAAAGUAUUAUGUUACGCCGUUCGGAUCUGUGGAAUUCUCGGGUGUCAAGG,-0.809
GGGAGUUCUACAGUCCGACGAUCAGUCCUGUGCUACACAUCGUAUGUACCGAAUCGGAAAAAGGAAAAAGGUUUUUUUGGAAAGUAUUAUGUUACGCCGUUCGGAUCUGCACUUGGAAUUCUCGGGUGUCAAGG,-1.67

# Block 4
# Target: CCND3, cyclin fold, Cln2 fusion (human)
# Technique: yeast growth competition, sequencing
# Sample: yeast
# Notes: weak parent motif
# Reference: not given
# Reading: higher = stronger binding
# Starting sequence: EXO1 docking peptide (human); KPECGRVQRAIFQ
Change,normalised enrichment score
F12A,0.368
R6A,0.0696
E3A,0.123
P2A,0.605
G5A,-0.017
R9A,0.0167

# Block 5
# Target: Sal-like protein 4, full length isoform B (SALL4, Homo sapiens, UniProt Q9UJQ4-2, residues 1-616)
# Technique: universal PBM
# Molecule type: double-stranded DNA, one strand shown
# Sample: in vitro
# Tested at: not given
# Notes: 8-mer, flanks averaged, mean of replicates
# Reading: higher = stronger binding
Strand,E-score
ACGGCGAA,0.0241
AAGCTATA,0.276
ACTGGGAA,-0.0283
CGAATTAG,-0.0127
TCGAAGAA,-0.0696
ACATGCAG,0.0707
AAGAGATC,-0.0967
CGGCGACC,-0.302
ACCCGGTG,-0.287
AAATTCCG,0.166
AAGCCGTC,-0.2
AACACATT,0.242
ATGCCCAT,-0.0785
GATCGCTA,-0.162
ATGCACGC,0.0696
CTGTTCCA,-0.0751
GCCCAGGC,-0.315

# Some of these lines once more (block 1):
Strand,E-score
AAAACTAG,-0.123
GATCGCTA,0.0972
GTTAGGTA,-0.0382
CTTAACGC,0.00581
ACTTATCG,-0.0577
